Results from different studies.
Each numbered part is a random draw from the data of one study; scales do not carry over between parts. Positions count from the first letter of the parent shown.

Set 1
Target: Phosphate system positive regulatory protein PHO4, full length, GST-tagged (PHO4, Saccharomyces cerevisiae, UniProt P07270, residues 1-312)
Technique: competition protein-binding microarray
Molecule type: double-stranded DNA, one strand shown
Sample: in vitro
Tested at: 2 µM
Setting: whole 60-bp probe, lowest competitor level
Added: Cbf1 competitor, 0.05 µM
Reading: higher = stronger binding
Endpoint: fluorescence intensity
Shared flanks, not repeated: … GTCTTGATTCGCTTGACGCTGCTG
Target sequence (chain): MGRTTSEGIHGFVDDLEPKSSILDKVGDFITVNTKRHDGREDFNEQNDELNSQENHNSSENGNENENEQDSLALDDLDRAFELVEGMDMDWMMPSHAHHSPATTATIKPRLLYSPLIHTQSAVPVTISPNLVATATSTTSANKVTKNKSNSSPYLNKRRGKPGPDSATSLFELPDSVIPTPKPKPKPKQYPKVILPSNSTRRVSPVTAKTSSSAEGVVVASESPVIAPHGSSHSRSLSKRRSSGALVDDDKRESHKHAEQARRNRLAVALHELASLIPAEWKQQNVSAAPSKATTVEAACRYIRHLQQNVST
Oligonucleotide = CATACCCAACCTTGGTCTGTGGGTGAAGATATTTGT; value = 4300 a.u.
Oligonucleotide = TCTCACCCATTCCGTCACGCTTTGGTTGCCGGTATT; value = 6500 a.u.
Oligonucleotide = TTATAAAGAAACCGTCACGTTCTGGATGCGACGTCG; value = 12300 a.u.
Oligonucleotide = ACCGGGAAAATCCAACACGTGATGGTCCGACATGGA; value = 16900 a.u.
Oligonucleotide = CGGGGTTAAGTTTTTCACGTGCCGTGCTTTCAGCAG; value = 12300 a.u.
Oligonucleotide = TGACTTGAATTCCAACACGTGGATTATTTCCTCATT; value = 16500 a.u.
Oligonucleotide = CTTTTCAAGAATGCAAACGTGAGGTTGGCGCGCCCT; value = 8650 a.u.
Oligonucleotide = CTGTTTCCATTTTGCCGCGTGGAGGCATCTGTCCAA; value = 9650 a.u.
Oligonucleotide = AACTCACCCCATTTGCTCGTGGGTAGTGACGACCGC; value = 8300 a.u.
Oligonucleotide = ATCAACAATTTGTTCCACGTGCGATAAAATGTCGTT; value = 18500 a.u.
Oligonucleotide = CGGGGTTAAGTTTTTCACGTGCCCTGCTTGCAGCAG; value = 12200 a.u.
Oligonucleotide = CAGCGGCATTTCGCTCGCGTGCCAGATCTCACAATC; value = 8770 a.u.
Oligonucleotide = TGAGAAGAGAGGCCACACATGCTGTTGGGGTTCATG; value = 8750 a.u.
Oligonucleotide = AAAGCGGTAATTTGAAAAGTGGGTGCAGATATCTAT; value = 4200 a.u.
Oligonucleotide = CATACCCAACCTTTTCACGTGACGTAAGATATTTGT; value = 14000 a.u.
Oligonucleotide = GGCTATTGAATCTCCAACGTGACGGTCGGTGAGAAT; value = 11900 a.u.
Oligonucleotide = CTTCTGTAAATTTGTCACGTAACTTGACGCGCCCCG; value = 5030 a.u.

Set 2
Target: RING finger protein unkempt homolog, zinc fingers 1-6, SBP tag (UNK, Homo sapiens, UniProt Q9C0B0, residues 30-357)
Chain of UniProt Q9C0B0 (30-357, looked up): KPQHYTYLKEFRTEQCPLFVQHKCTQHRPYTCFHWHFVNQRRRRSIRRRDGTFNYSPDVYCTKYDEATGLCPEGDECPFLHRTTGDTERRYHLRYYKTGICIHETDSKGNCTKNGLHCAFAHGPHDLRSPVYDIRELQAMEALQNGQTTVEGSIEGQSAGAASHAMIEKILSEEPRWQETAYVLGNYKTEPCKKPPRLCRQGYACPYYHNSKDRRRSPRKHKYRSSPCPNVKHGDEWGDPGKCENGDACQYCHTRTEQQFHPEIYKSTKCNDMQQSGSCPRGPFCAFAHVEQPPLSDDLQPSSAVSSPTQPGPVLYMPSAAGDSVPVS
Technique: RNA Bind-n-Seq
Molecule type: RNA
Sample: in vitro
Tested at: 100 nM
Setting: RNA with constant flanks, vertebrate orthologous sites, ends assumed
Relative to: input RNA pool
Reading: higher = stronger binding
Endpoint: bound/input enrichment
Shared flanks, not repeated: GGGAGUUCUACAGUCCGACGAUC … CAACAGAGGAUUGAGCAUCA
Oligonucleotide = GAAGUGUCCCAUUGUCACUGAGAACCACCAAAUUUGACUUUCACAUUUGGUCUCAGAAUUUAGGUUCCUGCCCUGUUGUUUUUCUUUCGUUUUCUUAAAACAAACAAACAGUUUUCAGAA; value = 0.288 ratio
Oligonucleotide = UUUUAUUGAUCAGGUCUGUAAAUGUGUACUGAAAAAAUCAGAGUCUAUUUAUAAAUAGAAUAGUUUAUUUAAAGAGGUCUUUCCUCAUCCAUGUUGUGAUAUGCGUAAUUCCAUUUGUUA; value = 0.673 ratio
Oligonucleotide = AUCCCAGUUUGUAUGCACAUUAUUCACAUUCCUAUCUGUUGUGUUUGCAGAAAUUACAUUUUAUCCUUUUCUAAGGAAUAUCUUUUGAUUUUCAUGUUAUUUGGUUGCAUGGAGUUGCCU; value = 0.527 ratio
Oligonucleotide = UCACUUGUUGAUUAUAAUUACUUAGAUAAGAAAUUUUUACUGUUGAUGGUUGCCGUGAAAAUGGCCUAUCCUAUUUUUUUUUUAAAUCAGUUUUGCAAAGAUCAGUUUUGUGGCUUCGUA; value = 0.512 ratio
Oligonucleotide = CUUACAGUCAUUUUCCCACAUUUCCUGUAAAUAAUGGAUAAUCAUUUUUAUUUUAUUUUUAAGUACUGUUUUAACAAUGUGGAUAGACCAUAAAUGUACUUGCUGAAUUCAUUCAUGUUU; value = 0.255 ratio
Oligonucleotide = ACACUUACAUUGUGGCAAAUAGUCAACAUGGAAGUAGACCGGCUCUGCUGAUUUGAAAUUUAGAUUUUUUAAUUAUGUACUGGGGACAGGUUUUUGUCGCUUUACAUUGCUUCCUAGUUU; value = 3.31 ratio
Oligonucleotide = UGAAAAUAGCUUCUGCUCCAUUGAGAGUAAAAAUAGUCCCAUGAAUAGAAAACUCCUAAGUAACUAUUUUUUGAAUAAAAAACGUUAAAUUUUGUAAAUCACCUGCUGCCACAAUACAAC; value = 0.91 ratio
Oligonucleotide = UUUUAUUGAUCAGGUCUGUAAAUGUGUACUACAAAAAUCAGAGUUUAUUUAUAAACAGAAUAGUUUAUUUAAAGCGAAGGCCUUUCCUCAUCAAUAUCGUGGUAUGCAUUGAUUCCAUUC; value = 0.215 ratio
Oligonucleotide = AGUCCCCUGGGCGGACGGAUUUUUUUUUUUUAGUGUCUUGAAAUUUAAACUCUGUGCUUGUAGGAGACUGUAACCUUUUUGUCUUUUUUUUUUUAAACAAAACCUCCACCUCCAGUGGCU; value = 1.2 ratio
Oligonucleotide = AAAUUUAUUUCAUGCCAUGGACCCCGUAUCGUACGGACACCUUGAUAGAAUAUGCUUCUUUGGAGGACUUCCAAAACAGCCGCCAAACAACAACAUAUAAACUUCCCAAUCGGGUAGAUG; value = 0.554 ratio
Oligonucleotide = UUUAAAGUCAUUUUUUCACGUUUCCUGUAAAUAAUGGAUAAUCAUUUUUAUUUUAUUUUUAAGUGCUGUUUUAACAAUGUGGAUAGACCAUAAAUGUACUUGCUGAAUUCAUUCAUUUUU; value = 0.497 ratio

Set 3
Target: CCNE1, cyclin fold, Cln2 fusion (human)
Technique: yeast growth competition, sequencing
Sample: yeast
Setting: strong parent motif
Relative to: not given
Reading: higher = stronger binding
Endpoint: normalised enrichment score
Parent: PKMYT1 docking peptide (human); SFEPRNLLSLFED; partner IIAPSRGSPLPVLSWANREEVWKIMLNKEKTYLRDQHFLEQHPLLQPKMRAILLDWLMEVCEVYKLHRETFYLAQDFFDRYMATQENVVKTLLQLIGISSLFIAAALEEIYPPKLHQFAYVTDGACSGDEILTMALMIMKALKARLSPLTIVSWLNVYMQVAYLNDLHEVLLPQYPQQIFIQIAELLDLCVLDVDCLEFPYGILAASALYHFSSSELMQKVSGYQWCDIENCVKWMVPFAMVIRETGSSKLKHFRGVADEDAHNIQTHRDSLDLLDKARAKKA
Variant = SFEPRNLRSLFED [L8R]; value = 0.951
Variant = SFEPRSLLSLFED [N6S]; value = 1.32
Variant = SFEPRNLSSLFED [L8S]; value = 0.524
Variant = SFEPRNILSLFED [L7I]; value = 1.56
Variant = SFEPRNLLSLPED [F11P]; value = 0.237
Variant = SFDPRNLLSLFED [E3D]; value = 0.772
Variant = SFVPRNLLSLFED [E3V]; value = 3.02
Variant = SFEPRNLLSLFEC [D13C]; value = 2.14
Variant = SFEPRNLLSLFHD [E12H]; value = 1.65
Variant = SNEPRNLLSLFED [F2N]; value = 0.27
Variant = SFEPRNLLSSFED [L10S]; value = 1.89
Variant = SFEPRNLKSLFED [L8K]; value = 0.618
Variant = SFEPRNLLVLFED [S9V]; value = 1.83
Variant = SFEPRNLLNLFED [S9N]; value = 1.54
Variant = SFEPRNLLSLFEE [D13E]; value = 1.77
Variant = SFEPRNLLSLCED [F11C]; value = -0.227
Variant = SFEPRNQLSLFED [L7Q]; value = 0.0731
Variant = SFEPRNLVSLFED [L8V]; value = 0.307

Set 4
Target: RNA binding protein fox-1 homolog 2, RRM domain, GST-SBP tag (RBFOX2, Homo sapiens, UniProt O43251-10, residues 100-194)
Technique: RNA Bind-n-Seq
Molecule type: RNA
Sample: in vitro
Tested at: 365 nM
Setting: natural RNA segment, single round, ends assumed
Relative to: no-protein control
Reading: higher = stronger binding
Endpoint: RBNS enrichment (R)
Shared flanks, not repeated: GGGAGUUCUACAGUCCGACGAUC … UGGAAUUCUCGGGUGCCAA
Construct (chain): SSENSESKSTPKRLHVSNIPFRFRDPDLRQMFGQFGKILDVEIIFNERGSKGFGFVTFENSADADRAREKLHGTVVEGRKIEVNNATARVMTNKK
Oligonucleotide = AGCUGCAGGUGGCCUGCCACGCCUGCCUGGCCAAGUUUCUGUUCCCCUCCUCCUAAAGUCAAGGUGGGGUGGACAAUGACUUCCACAUCCCUCAGGGCAUAGAGUCCUUG; value = 0.627
Oligonucleotide = CCCACCCUGGGAGAUGAGGGGGUCCCCAUGUGCUUUUCCAGUUCUUCUGGAAUUGGGGGACCCCCGCCAAAGACUGAGCCCCCUGUCUCCUCCAUCAUUUGGUUUCCUCU; value = 0.288
Oligonucleotide = UAUCUUAGGAGUUUAAUUUGCCCUUCUCUCCCCAUCUUCCCUCAGUUCCCAUAAAACCUUCAUUACACAUAAAGAUACACGUGGGGGUCAGUGAAUCUGCUUGCCUUUCC; value = 1.01
Oligonucleotide = AGGUUUUUACCAAUUUCUAGAGCAGUUCAAACCCUAAGUGCUCAAGCGCUUACACAUCCCCUCUGGUGCUUGGUUGAACAAGGGAAUCACGAGACAAUGAAAAUGCAGAG; value = 0.292
Oligonucleotide = ACUGGUACACUUGAUCUUAUGUCCAUAUGAAAGUGCAAAUCUUUAUUAAUUUGGAUUGCCUGAGCAGUGUGUAUCCCAUGAUGAUGAAGGGAAAUGGAGAGAUUUUUCCU; value = 0.274
Oligonucleotide = AAAGGAAAAUGGCUUUGAAAAUGAGACAGUCUUUGUGGGUUUUGUCGUUGGUUUUUGUUUGUUUACUUGGUUUUCUCAUGUCCAGCACGGAGGUCUCCAGUUCACAAGAG; value = 0.661
Oligonucleotide = GCUAUGGCCCUAUGUCACUCUGCCCUCUUGGUUUCUGCUGCCCUACGGCAGCUGGUGGAAUCUAUUGGGCAAAAAGUCCUGCAACCCUCUUACCUCCAGGCUUUGGUGCU; value = 0.168
Oligonucleotide = UUAUUGAUGUUUUAUAUAGAGAGUAGGAUCAUUAGUUUUUGUUACUGUAAUGUUUGAUGUCUCAAAUGCACCGUAUUACGGUAAUAACAUGGUUUCGAAAACUUUCUGUU; value = 0.323
Oligonucleotide = ACAGGCCCCACGAAGCAGGGGCCACACCCUUGUCCUGGGCUGCCUUCUGGCUGGCUUCUCUCUGCCAGGGGCUCAGAAGGGGCACAAAAGGGGGUCAAGAAAAGAGCAAC; value = 0.349
Oligonucleotide = CAUCCAGAAUAGAAUCUGUAACAAGAGACAUGGGACAUAAGCCAGAGAACUCAAACAGCCCUUUAAAGGAGCUCUCGGCAACCAACACUGCCACUCUAUGAGAAAACCCU; value = 0.297
Oligonucleotide = UUCAUUUAGAGACCACAGUAACAACAGCAGCCCACCAAUCAGAGAAGCUGGUUGUUAUUAACCAAGCUACAGAUUCACACUUUCUGGCCUAAACCCUAAUGGGAUGAGGC; value = 0.264
Oligonucleotide = AUUUCUUAAACCGUUUUAUUUAGCCCUCCUUCCCUCUUUCUAGUUGGAAGCCAAAUGUACUCAUGAAAACAGCCACUCCUAUUCUGAGUCUUGGUUUCUUCACCUAGAAA; value = 0.475

Repeated from above (set 4):
Oligonucleotide = AGGUUUUUACCAAUUUCUAGAGCAGUUCAAACCCUAAGUGCUCAAGCGCUUACACAUCCCCUCUGGUGCUUGGUUGAACAAGGGAAUCACGAGACAAUGAAAAUGCAGAG; value = 0.292
Oligonucleotide = ACUGGUACACUUGAUCUUAUGUCCAUAUGAAAGUGCAAAUCUUUAUUAAUUUGGAUUGCCUGAGCAGUGUGUAUCCCAUGAUGAUGAAGGGAAAUGGAGAGAUUUUUCCU; value = 0.274
Oligonucleotide = ACAGGCCCCACGAAGCAGGGGCCACACCCUUGUCCUGGGCUGCCUUCUGGCUGGCUUCUCUCUGCCAGGGGCUCAGAAGGGGCACAAAAGGGGGUCAAGAAAAGAGCAAC; value = 0.349
Oligonucleotide = UUAUUGAUGUUUUAUAUAGAGAGUAGGAUCAUUAGUUUUUGUUACUGUAAUGUUUGAUGUCUCAAAUGCACCGUAUUACGGUAAUAACAUGGUUUCGAAAACUUUCUGUU; value = 0.323
Oligonucleotide = UAUCUUAGGAGUUUAAUUUGCCCUUCUCUCCCCAUCUUCCCUCAGUUCCCAUAAAACCUUCAUUACACAUAAAGAUACACGUGGGGGUCAGUGAAUCUGCUUGCCUUUCC; value = 1.01
Oligonucleotide = GCUAUGGCCCUAUGUCACUCUGCCCUCUUGGUUUCUGCUGCCCUACGGCAGCUGGUGGAAUCUAUUGGGCAAAAAGUCCUGCAACCCUCUUACCUCCAGGCUUUGGUGCU; value = 0.168
Oligonucleotide = UUCAUUUAGAGACCACAGUAACAACAGCAGCCCACCAAUCAGAGAAGCUGGUUGUUAUUAACCAAGCUACAGAUUCACACUUUCUGGCCUAAACCCUAAUGGGAUGAGGC; value = 0.264
Oligonucleotide = CAUCCAGAAUAGAAUCUGUAACAAGAGACAUGGGACAUAAGCCAGAGAACUCAAACAGCCCUUUAAAGGAGCUCUCGGCAACCAACACUGCCACUCUAUGAGAAAACCCU; value = 0.297
Oligonucleotide = AAAGGAAAAUGGCUUUGAAAAUGAGACAGUCUUUGUGGGUUUUGUCGUUGGUUUUUGUUUGUUUACUUGGUUUUCUCAUGUCCAGCACGGAGGUCUCCAGUUCACAAGAG; value = 0.661
